Published values collected from several papers.
A part holds a random share of what one study measured.
Chain of UniProt P00519 (whole entry, unmodified, looked up): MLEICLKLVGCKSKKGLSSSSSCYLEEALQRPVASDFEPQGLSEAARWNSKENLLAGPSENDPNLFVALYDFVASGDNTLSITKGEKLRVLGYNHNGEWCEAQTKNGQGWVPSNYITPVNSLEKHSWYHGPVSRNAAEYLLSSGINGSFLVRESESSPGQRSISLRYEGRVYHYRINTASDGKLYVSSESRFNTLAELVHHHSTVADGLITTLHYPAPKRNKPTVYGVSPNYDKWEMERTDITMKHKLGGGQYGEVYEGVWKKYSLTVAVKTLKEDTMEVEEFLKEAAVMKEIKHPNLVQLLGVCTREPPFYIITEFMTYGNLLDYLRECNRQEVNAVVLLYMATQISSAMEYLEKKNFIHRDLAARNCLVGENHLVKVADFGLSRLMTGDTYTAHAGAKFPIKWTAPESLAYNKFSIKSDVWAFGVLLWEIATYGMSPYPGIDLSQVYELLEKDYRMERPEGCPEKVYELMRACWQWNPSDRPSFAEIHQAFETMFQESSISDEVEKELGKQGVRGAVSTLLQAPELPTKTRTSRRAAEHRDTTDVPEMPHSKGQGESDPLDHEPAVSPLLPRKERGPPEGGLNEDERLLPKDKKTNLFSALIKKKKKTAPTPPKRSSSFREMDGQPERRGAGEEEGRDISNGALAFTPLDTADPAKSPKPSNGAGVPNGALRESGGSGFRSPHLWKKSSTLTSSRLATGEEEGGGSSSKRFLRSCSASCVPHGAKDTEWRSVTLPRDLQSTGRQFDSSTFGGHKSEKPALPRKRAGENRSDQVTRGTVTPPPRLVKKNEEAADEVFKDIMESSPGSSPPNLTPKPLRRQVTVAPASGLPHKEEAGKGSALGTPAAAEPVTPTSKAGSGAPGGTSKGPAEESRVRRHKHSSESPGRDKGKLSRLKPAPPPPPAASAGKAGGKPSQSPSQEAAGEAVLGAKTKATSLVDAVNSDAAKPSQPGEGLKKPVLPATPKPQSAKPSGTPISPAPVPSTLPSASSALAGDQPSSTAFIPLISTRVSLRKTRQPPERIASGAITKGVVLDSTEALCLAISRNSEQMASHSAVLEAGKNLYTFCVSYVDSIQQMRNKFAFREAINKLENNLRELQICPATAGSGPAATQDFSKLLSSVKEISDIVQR
Chain of UniProt Q9H3Y6 (whole entry, looked up): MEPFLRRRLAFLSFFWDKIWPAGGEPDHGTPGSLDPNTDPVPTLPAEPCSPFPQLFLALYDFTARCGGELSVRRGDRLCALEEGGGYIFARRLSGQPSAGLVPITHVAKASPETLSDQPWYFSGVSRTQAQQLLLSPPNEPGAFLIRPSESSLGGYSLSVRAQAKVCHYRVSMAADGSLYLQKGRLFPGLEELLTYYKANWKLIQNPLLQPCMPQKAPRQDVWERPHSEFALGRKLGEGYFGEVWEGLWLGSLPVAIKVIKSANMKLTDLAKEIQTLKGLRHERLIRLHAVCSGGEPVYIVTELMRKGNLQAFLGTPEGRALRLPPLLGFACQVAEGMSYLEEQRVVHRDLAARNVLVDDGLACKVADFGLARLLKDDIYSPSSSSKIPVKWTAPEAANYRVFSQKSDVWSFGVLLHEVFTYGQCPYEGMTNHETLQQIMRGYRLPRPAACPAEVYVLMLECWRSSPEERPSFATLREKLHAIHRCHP
Chain of UniProt Q12851 (whole entry, looked up): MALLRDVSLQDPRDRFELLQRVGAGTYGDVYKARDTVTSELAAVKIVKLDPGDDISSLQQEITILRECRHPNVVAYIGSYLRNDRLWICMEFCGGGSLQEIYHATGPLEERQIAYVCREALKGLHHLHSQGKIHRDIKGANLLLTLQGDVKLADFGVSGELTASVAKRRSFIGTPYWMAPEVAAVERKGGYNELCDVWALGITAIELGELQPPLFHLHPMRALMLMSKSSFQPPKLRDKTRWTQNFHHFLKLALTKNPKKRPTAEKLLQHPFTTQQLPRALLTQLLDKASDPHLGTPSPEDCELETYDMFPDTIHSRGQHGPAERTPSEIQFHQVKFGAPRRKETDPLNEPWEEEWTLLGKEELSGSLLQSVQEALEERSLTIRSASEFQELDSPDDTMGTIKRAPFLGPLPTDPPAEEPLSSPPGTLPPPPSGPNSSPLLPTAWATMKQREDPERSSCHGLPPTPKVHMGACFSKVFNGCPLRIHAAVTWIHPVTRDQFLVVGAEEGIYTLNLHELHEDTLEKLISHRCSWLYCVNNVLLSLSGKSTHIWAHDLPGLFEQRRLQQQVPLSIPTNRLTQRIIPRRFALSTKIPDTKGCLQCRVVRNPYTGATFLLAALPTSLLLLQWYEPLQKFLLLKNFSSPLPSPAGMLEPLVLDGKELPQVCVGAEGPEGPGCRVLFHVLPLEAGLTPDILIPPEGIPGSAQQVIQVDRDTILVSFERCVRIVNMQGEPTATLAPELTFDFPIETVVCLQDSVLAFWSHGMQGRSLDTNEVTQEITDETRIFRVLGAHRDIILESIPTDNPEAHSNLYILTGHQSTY
Chain of UniProt P10721 (whole entry, unmodified, looked up): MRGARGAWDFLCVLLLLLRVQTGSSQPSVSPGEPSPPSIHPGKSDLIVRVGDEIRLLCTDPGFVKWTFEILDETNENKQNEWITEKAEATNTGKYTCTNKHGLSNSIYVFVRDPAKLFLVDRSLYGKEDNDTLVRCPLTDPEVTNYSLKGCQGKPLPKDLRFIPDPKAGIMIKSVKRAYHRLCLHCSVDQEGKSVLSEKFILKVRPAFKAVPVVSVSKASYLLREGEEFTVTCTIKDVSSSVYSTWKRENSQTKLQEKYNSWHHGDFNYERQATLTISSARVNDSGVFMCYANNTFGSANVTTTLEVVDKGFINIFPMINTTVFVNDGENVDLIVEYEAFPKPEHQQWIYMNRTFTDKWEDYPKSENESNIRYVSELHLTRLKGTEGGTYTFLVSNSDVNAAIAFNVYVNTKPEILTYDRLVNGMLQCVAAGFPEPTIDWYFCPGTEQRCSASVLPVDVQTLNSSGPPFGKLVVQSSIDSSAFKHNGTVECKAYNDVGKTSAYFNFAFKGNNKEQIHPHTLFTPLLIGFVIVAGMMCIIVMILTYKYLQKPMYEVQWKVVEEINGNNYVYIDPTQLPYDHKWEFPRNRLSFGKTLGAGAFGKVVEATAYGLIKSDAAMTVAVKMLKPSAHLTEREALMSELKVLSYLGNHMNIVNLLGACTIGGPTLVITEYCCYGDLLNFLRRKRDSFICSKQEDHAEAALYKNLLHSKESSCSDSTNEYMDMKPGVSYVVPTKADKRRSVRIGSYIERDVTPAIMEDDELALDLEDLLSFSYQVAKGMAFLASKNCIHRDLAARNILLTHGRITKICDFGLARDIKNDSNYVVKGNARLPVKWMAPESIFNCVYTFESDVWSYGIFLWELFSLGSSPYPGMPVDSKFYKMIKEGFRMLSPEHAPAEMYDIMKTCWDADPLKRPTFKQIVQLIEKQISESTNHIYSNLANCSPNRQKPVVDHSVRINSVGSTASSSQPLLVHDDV
Chain of UniProt P25098 (whole entry, looked up): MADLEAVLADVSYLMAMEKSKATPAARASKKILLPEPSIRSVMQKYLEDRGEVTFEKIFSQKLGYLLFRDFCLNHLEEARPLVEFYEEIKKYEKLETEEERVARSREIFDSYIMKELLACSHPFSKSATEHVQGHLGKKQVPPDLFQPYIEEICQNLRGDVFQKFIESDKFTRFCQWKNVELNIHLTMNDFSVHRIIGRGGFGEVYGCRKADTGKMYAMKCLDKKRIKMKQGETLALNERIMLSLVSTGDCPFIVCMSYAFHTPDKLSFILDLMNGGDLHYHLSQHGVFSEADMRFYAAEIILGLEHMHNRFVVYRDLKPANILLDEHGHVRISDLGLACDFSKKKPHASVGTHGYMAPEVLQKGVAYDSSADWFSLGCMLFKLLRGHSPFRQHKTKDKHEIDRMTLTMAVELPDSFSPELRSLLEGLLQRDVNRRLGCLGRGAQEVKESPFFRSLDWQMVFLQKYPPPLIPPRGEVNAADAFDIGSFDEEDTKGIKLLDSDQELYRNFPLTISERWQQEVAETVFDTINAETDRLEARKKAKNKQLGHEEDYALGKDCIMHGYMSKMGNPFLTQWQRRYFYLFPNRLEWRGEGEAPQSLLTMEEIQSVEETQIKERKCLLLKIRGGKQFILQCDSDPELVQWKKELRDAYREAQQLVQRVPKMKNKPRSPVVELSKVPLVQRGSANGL
Chain of UniProt Q9Y2H1 (whole entry, looked up): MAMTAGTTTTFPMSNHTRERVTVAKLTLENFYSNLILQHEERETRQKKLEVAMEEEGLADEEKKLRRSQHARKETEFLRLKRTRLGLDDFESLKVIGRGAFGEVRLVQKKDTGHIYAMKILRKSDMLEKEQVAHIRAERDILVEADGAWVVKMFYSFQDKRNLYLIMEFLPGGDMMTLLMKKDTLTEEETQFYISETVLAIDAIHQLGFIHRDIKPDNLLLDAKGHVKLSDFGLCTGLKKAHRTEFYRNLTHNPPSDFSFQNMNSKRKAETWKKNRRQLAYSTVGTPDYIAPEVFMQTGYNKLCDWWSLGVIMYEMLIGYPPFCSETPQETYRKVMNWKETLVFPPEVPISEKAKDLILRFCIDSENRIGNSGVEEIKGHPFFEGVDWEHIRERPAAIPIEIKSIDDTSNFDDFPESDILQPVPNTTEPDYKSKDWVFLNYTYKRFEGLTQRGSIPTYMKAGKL

Study 1 — concentration: 0.1 µM
SMILES: Cn1nc(C(=O)NCc2ccc(C(=O)O)cc2)cc1-c1ccc2[nH]ccc2c1
| target | assay | remaining binding [%] |
| --- | --- | --- |
| Calcium/calmodulin-dependent protein kinase kinase 2 (CAMKK2, Homo sapiens, UniProt Q96RR4) | cell-free assay, competition with immobilised ligand | 80 |
| Beta-adrenergic receptor kinase 1 (GRK2, Homo sapiens, UniProt P25098) | cell-free assay, competition with immobilised ligand | 98 |
| Mitogen-activated protein kinase kinase kinase kinase 2 (MAP4K2, Homo sapiens, UniProt Q12851) | cell-free assay, competition with immobilised ligand | 85 |
| Phosphorylase b kinase gamma catalytic chain, liver/testis isoform (PHKG2, Homo sapiens, UniProt P15735) | cell-free assay, competition with immobilised ligand | 86 |
| Casein kinase I isoform delta (CSNK1D, Homo sapiens, UniProt P48730) | cell-free assay, competition with immobilised ligand | 84 |
| Serine/threonine-protein kinase 38-like (STK38L, Homo sapiens, UniProt Q9Y2H1) | cell-free assay, competition with immobilised ligand | 99 |
| Maternal embryonic leucine zipper kinase (MELK, Homo sapiens, UniProt Q14680) | cell-free assay, competition with immobilised ligand | 86 |
| Mitogen-activated protein kinase kinase kinase kinase 1 (MAP4K1, Homo sapiens, UniProt Q92918) | cell-free assay, competition with immobilised ligand | 97 |
| Protein kinase C delta type (PRKCD, Homo sapiens, UniProt Q05655) | cell-free assay, competition with immobilised ligand | 89 |
| RAC-alpha serine/threonine-protein kinase (AKT1, Homo sapiens, UniProt P31749) | cell-free assay, competition with immobilised ligand | 100 |
| Tyrosine-protein kinase ABL1, phosphorylated (ABL1, Homo sapiens, UniProt P00519, F317I) | binding | 100 |
| Rho-associated protein kinase 2 (ROCK2, Homo sapiens, UniProt O75116) | cell-free assay, competition with immobilised ligand | 82 |
| Tyrosine-protein kinase Srms (SRMS, Homo sapiens, UniProt Q9H3Y6) | cell-free assay, competition with immobilised ligand | 81 |
| Citron Rho-interacting kinase (CIT, Homo sapiens, UniProt O14578) | cell-free assay, competition with immobilised ligand | 59 |
| Serine/threonine-protein kinase ULK2 (ULK2, Homo sapiens, UniProt Q8IYT8) | cell-free assay, competition with immobilised ligand | 98 |
| Cyclin-dependent kinase-like 1 (CDKL1, Homo sapiens, UniProt Q00532) | cell-free assay, competition with immobilised ligand | 70 |
| Tyrosine-protein kinase ABL1, non-phosphorylated (ABL1, Homo sapiens, UniProt P00519, F317L) | cell-free assay, competition with immobilised ligand | 87 |
| Ribosomal protein S6 kinase alpha-5, C-terminal kinase domain (RPS6KA5, Homo sapiens, UniProt O75582) | cell-free assay, competition with immobilised ligand | 100 |
| Serine/threonine-protein kinase 17B (STK17B, Homo sapiens, UniProt O94768) | cell-free assay, competition with immobilised ligand | 91 |
| Receptor-type tyrosine-protein kinase FLT3 (FLT3, Homo sapiens, UniProt P36888, F691L/ITD) | cell-free assay, competition with immobilised ligand | 66 |
| Protein kinase C theta type (PRKCQ, Homo sapiens, UniProt Q04759) | cell-free assay, competition with immobilised ligand | 99 |
| Receptor-type tyrosine-protein kinase FLT3 (FLT3, Homo sapiens, UniProt P36888, D835V) | cell-free assay, competition with immobilised ligand | 98 |
| cAMP-dependent protein kinase catalytic subunit alpha (PRKACA, Homo sapiens, UniProt P17612) | cell-free assay, competition with immobilised ligand | 100 |
| Mast/stem cell growth factor receptor Kit (KIT, Homo sapiens, UniProt P10721, L576P) | cell-free assay, competition with immobilised ligand | 59 |
| Focal adhesion kinase 1 (PTK2, Homo sapiens, UniProt Q05397) | cell-free assay, competition with immobilised ligand | 85 |

Study 2
SMILES: CC(C)[C@H](CO)Nc1nc(Nc2cccc(Cl)c2)c2ncn(C(C)C)c2n1
| target | assay | system | IC50 |
| --- | --- | --- | --- |
| Glycogen synthase kinase-3 alpha (GSK3A, Homo sapiens, UniProt P49840) | kinobead competition | MRC5 cell lysate | > 10 µM |
| Eukaryotic translation initiation factor 3 subunit G (Homo sapiens, UniProt O75821) |  |  | > 10 µM |
| protein Tb427tmp.211.1150 | kinobead TMT proteomics | Trypanosoma brucei, cell lysate | > 10 µM |
| Trypanosoma brucei kinase Tb427tmp.160.1200 | binding, kinobead competition | Trypanosoma brucei lysate | > 10 µM |
| Trypanosoma brucei protein Tb427tmp.01.1290 | binding, kinobead competition | Trypanosoma brucei lysate | > 10 µM |
| Trypanosoma brucei protein Tb427tmp.02.5280 | binding, kinobead competition | Trypanosoma brucei lysate | > 10 µM |
| protein Tb427tmp.01.1475 | kinobead TMT proteomics | Trypanosoma brucei, cell lysate | > 10 µM |
| Alpha-actinin-1 (Homo sapiens, UniProt P12814) |  |  | > 10 µM |
| Dual specificity mitogen-activated protein kinase kinase 2 (MAP2K2, Homo sapiens, UniProt P36507) |  |  | > 10 µM |
| protein Tb427tmp.50.0005 | kinobead TMT proteomics | Trypanosoma brucei, cell lysate | > 10 µM |
| protein Tb427tmp.01.3560 | kinobead TMT proteomics | Trypanosoma brucei, cell lysate | > 10 µM |
| Trypanosoma brucei protein Tb427tmp.160.2490 | binding, kinobead competition | Trypanosoma brucei lysate | > 10 µM |

Study 3 — effect on: enzyme activity; mode: inhibitor; concentration: 0.5 µM; reference: control
Target: Aurora kinase C (AURKC, Homo sapiens, UniProt Q9UQB9)
Residues (Q9UQB9 1-309): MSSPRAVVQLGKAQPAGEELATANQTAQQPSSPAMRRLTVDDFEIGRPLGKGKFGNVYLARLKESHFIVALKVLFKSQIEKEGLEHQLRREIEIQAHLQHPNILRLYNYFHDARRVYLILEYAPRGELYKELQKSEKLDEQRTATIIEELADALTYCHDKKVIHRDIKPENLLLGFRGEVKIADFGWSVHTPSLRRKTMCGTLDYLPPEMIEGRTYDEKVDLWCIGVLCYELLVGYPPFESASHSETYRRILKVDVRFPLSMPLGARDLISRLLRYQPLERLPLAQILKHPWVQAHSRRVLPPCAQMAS
| SMILES | remaining activity |
| --- | --- |
| CCN(CC)C(=O)c1ccc(Nc2nc(OCC3CCCCC3)c3[nH]cnc3n2)cc1 | 20.7% |
| O=C(NC(NC(=S)Nc1ccc(F)c([N+](=O)[O-])c1)C(Cl)(Cl)Cl)C(c1ccccc1)c1ccccc1 (stereo not drawn) | 93.8% |
| COc1cc2ncnc(Nc3cccc(Cl)c3)c2cc1OC | 85.8% |
| CCN(CC)CCNC(=O)c1c(C)[nH]c(/C=C2\C(=O)Nc3ccc(F)cc32)c1C | 72.8% |
| O=C1C(Cl)=C(N2C(=O)CCC2=O)C(=O)c2ccccc21 | 97.9% |
| N#C/C(=C\c1ccc(O)c(O)c1)C(=O)NCc1ccccc1 | 95.5% |
| CN([C@@H](Cc1ccc(OS(=O)(=O)c2cccc3cnccc23)cc1)C(=O)N1CCN(c2ccccc2)CC1)S(=O)(=O)c1cccc2cnccc12 | 98.2% |
| O=C1c2ccccc2-c2n[nH]c3cccc1c23 | 41.2% |
| Ic1cccc(CSc2nnc(-c3ccncc3)o2)c1 | 91.2% |
| Cc1cn(-c2cc(NC(=O)c3ccc(C)c(Nc4nccc(-c5cccnc5)n4)c3)cc(C(F)(F)F)c2)cn1 | 87.2% |
| COc1cc2c(cc1OC)-c1[nH]nc(Nc3cccc(F)c3)c1C2 | 94.5% |
| Cc1cc2ncc(-c3ccccc3)nc2cc1C | 92.1% |
| Cc1nc2cc3nc(-c4cccs4)cnc3cc2n1C | 93.3% |
| CCOc1nc(NC(=O)Cc2cc(OC)ccc2OC)cc(N)c1C#N | 97.4% |
| Cn1nc2c3c(cccc31)C(=O)c1ccccc1-2 | 89.3% |
| COc1cc2ncnc(Nc3ccc(O)c(Br)c3)c2cc1OC | 83.7% |
| c1ccc(-c2cnc(Nc3ccc(OCCN4CCCC4)cc3)s2)cc1 | 94.9% |
| c1ccc(-c2[nH]ncc2-c2ccnc3ccccc23)nc1 | 100% |
| N#Cc1c(NC(=O)c2cccc3ccccc23)sc2c1CCCC2 | 95% |
| Nc1cccc(-c2cc3c(Oc4cccc(O)c4)ncnc3[nH]2)c1 | 77.7% |
| C[C@@H]1CCN(C(=O)CC#N)C[C@@H]1N(C)c1ncnc2[nH]ccc12 | 85.3% |
| O=C(Nc1cccc(Nc2nccc(Nc3cccc(C(F)(F)F)c3)n2)c1)C1CC1 | 80.8% |
| CN(C)C[C@H]1CCn2c(c(C3=C(c4cn(C)c5ccccc45)C(=O)NC3=O)c3ccccc32)C1 | 93.1% |

Study 4 — effect on: enzyme activity; mode: inhibitor; concentration: 10 µM
Target: Calcium/calmodulin-dependent protein kinase type II subunit alpha (CAMK2A, Homo sapiens, UniProt Q9UQM7)
Chain of UniProt Q9UQM7 (whole entry, looked up): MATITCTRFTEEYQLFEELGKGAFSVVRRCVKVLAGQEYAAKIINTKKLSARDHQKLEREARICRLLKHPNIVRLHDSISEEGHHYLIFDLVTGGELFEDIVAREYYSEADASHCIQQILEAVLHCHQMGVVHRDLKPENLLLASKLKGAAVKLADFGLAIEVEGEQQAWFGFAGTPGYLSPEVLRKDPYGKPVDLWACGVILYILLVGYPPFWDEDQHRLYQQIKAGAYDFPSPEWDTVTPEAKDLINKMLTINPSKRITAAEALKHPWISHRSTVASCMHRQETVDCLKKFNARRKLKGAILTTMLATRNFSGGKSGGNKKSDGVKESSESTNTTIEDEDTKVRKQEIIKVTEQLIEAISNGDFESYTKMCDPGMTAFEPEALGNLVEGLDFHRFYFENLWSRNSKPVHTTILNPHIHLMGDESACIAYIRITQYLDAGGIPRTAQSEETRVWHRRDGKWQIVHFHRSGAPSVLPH
| Structure (SMILES) | inhibition |
| --- | --- |
| CCCCCCCC/C=C\CCCCCCCC(=O)OCC | 21% |
| C[C@@H]1CC[C@@]2(OC1)O[C@H]1C[C@H]3[C@@H]4CC=C5C[C@@H](O[C@@H]6O[C@H](CO)[C@@H](O)[C@H](O)[C@H]6O[C@@H]6O[C@@H](C)[C@H](O)[C@@H](O)[C@H]6O)CC[C@]5(C)[C@H]4CC[C@]3(C)[C@H]1[C@@H]2C | 4% |
| COc1cc(C[C@H](CO[C@@H]2O[C@H](CO)[C@@H](O)[C@H](O)[C@H]2O)[C@@H](CO[C@@H]2O[C@H](CO)[C@@H](O)[C@H](O)[C@H]2O)Cc2ccc(O)c(OC)c2)ccc1O | 24% |
| Nc1nc2c(ncn2[C@@H]2O[C@H](COP(=O)(O)OP(=O)(O)OP(=O)(O)O)[C@@H](O)[C@H]2O)c(=O)[nH]1 | 20% |
| COc1cc(CCCO)ccc1O | 11% |
| O=C[C@H](O)[C@@H](O)[C@H](O[C@H]1O[C@H](CO)[C@@H](O[C@H]2O[C@H](CO)[C@@H](O[C@H]3O[C@H](CO)[C@@H](O[C@H]4O[C@H](CO)[C@@H](O)[C@H](O)[C@H]4O)[C@H](O)[C@H]3O)[C@H](O)[C@H]2O)[C@H](O)[C@H]1O)[C@H](O)CO | 20% |
| CN1CC[C@@H](NC(=O)Nc2ccc(C#N)cc2)C[C@@H]1c1nc2ccccc2[nH]1 | -6% |
| CCCCC(=O)O[C@H]1CC[C@H]2[C@@H]3CCc4cc(O)ccc4[C@H]3CC[C@]12C | -10% |
| CCCCCCCC/C=C\CCCCCCCC(=O)O[C@H](CC(=O)[O-])C[N+](C)(C)C | -15% |
| C[C@H]1CN(C[C@H](Cc2ccccc2)C(=O)NCC(=O)O)CC[C@@]1(C)c1cccc(O)c1 | 8% |
| CC(=O)CC[C@@H](C)O[C@@H]1O[C@@H](C)[C@H](O)C[C@H]1O | -4% |
| O=C(O)c1cccnc1C(=O)O | -13% |
